Results of several laboratories.
Numbered parts are unrelated; each lists some results of a single study. Positions count from the first letter of the parent shown.

Sample 1 — target: CCND1, cyclin fold, Cln2 fusion (human); method: yeast growth competition, sequencing; matrix: yeast; setting: strong parent motif; reference: not given; reading: higher = stronger binding; parent: viral docking peptide; KGVKRKLFAEDSS
| Substitution | normalised enrichment score |
| --- | --- |
| D11Q | 0.471 |
| A9T | 1.38 |
| K4G | 0.466 |
| D11L | 0.0752 |
| A9P | 1.11 |
| D11H | 0.504 |
| G2K | 2.02 |
| A9K | 0.326 |
| V3M | -0.219 |
| K4A | 3.27 |
| K4T | 0.267 |
| D11F | 0.628 |
| E10N | 0.466 |
| S12T | 1.4 |
| A9I | 1.01 |
| K4C | 4.17 |
| K6L | 0.447 |
| L7Y | 0.105 |
| K1A | 1.21 |
| K4N | 0.959 |
| D11K | 0.566 |
| S12W | 1.25 |
| K6W | 0.184 |
| V3H | 0.379 |
| G2W | 0.719 |

Sample 2 — method: competition protein-binding microarray; molecule type: double-stranded DNA, one strand shown; matrix: in vitro; tested at: 2 µM; with: Cbf1 competitor, 0.05 µM; reading: higher = stronger binding; constant ends, left off below: … GTCTTGATTCGCTTGACGCTGCTG
Target: Phosphate system positive regulatory protein PHO4, full length, GST-tagged (PHO4, Saccharomyces cerevisiae, UniProt P07270, residues 1-312)
Setting: whole 60-bp probe, lowest competitor level
Construct (chain): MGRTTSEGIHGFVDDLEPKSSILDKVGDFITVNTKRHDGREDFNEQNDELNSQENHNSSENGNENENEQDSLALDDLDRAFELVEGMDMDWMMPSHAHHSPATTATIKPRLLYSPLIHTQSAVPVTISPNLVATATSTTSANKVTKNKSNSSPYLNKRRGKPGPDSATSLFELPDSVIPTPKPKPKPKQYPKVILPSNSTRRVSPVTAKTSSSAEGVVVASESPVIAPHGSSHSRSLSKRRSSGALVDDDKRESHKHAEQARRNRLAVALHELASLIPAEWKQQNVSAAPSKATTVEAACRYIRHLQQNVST
| Oligonucleotide | fluorescence intensity [a.u.] |
| --- | --- |
| TGTGGAGTTCAGCTTGCTACGAATACGCAGTTTTAG | 2810 |
| TCTAGCATTTCCATACAGGTGATAGTATCAAATTGT | 4110 |
| GTCTTGTCTCATTGTCACATAACTTTCCCCACTTCA | 4520 |
| CGTCCTAGTGATTTTCACGTGCGCTCCATGAGGAAG | 12900 |
| CGGGGTTAAGTTTGACCTGTGGGTGGCTTGCAGCAG | 4650 |
| GTCTTGTCTCATTGCCACGTGTTTTTCCCCACTTCA | 16600 |
| AAATTACTAAGTTGGAACGTGGGTGACGCCGTATGA | 14400 |
| CTTCTGTAAATTTTTCACGTGTGCTGACGCGCCCCG | 11900 |

Sample 3 — target: inorganic phosphate, free oxyanion; method: microfluidic competitive inhibition; matrix: in vitro, cell-free expressed; tested at: not given; reading: lower = stronger binding
Setting: derived from inhibition constants, unchanged parent 615000 nM
Parent: PafA, mature enzyme, eGFP fusion (Elizabethkingia meningoseptica, UniProt Q9KJX5); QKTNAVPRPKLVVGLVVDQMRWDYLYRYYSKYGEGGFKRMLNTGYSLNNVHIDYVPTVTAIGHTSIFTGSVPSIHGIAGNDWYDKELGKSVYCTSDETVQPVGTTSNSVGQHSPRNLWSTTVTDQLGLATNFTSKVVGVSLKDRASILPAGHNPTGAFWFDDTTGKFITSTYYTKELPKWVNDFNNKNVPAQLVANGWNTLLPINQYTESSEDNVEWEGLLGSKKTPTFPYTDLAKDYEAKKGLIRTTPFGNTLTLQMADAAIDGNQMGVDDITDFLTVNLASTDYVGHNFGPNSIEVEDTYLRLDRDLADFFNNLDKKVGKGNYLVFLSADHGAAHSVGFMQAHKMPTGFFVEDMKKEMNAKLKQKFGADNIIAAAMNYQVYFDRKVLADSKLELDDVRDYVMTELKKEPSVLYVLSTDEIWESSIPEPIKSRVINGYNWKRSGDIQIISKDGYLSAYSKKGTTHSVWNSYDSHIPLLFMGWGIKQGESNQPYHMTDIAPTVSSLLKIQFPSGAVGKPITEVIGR
| Substitution | phosphate dissociation constant [µM] |
| --- | --- |
| S426V | 599 |
| T123G | 616 |
| T155V | 667 |
| D213V | 208 |
| D317G | 582 |
| T301G | 402 |
| R307G | 580 |
| N440V | 577 |
| E354V | 558 |
| V136A | 594 |
| T247V | 605 |
| A370V | 727 |
| P411G | 634 |
| L394G | 601 |
| T43G | 502 |
| M342V | 637 |
| D161G | 753 |
| N470G | 443 |
| E218G | 187 |
| G265V | 612 |
| E34G | 600 |
| D300V | 310 |
| D53G | 410 |
| H333V | 500 |
| R115G | 589 |

Single results of other studies
| Compound | target | assay | setting | scale | quantity | value |
| --- | --- | --- | --- | --- | --- | --- |
| COC[C@H]1OC(=O)c2coc3c2[C@@]1(C)C1=C(C3=O)[C@@H]2CCC(=O)[C@@]2(C)C[C@H]1OC(C)=O | Protein kinase C alpha type (PRKCA, Homo sapiens, UniProt P17252) | enzyme activity, inhibitor | 0.5 µM | reference: control | remaining activity | 96.3% |
